{"data": "Measurements of several laboratories", "U2AF2": "U2AF2 148-342 (Homo sapiens, UniProt P26368)", "B1": "poly(rC)-binding protein 2, human; sequence looked up; chain MDTGVIEGGLNVTLTIRLLMHGKEVGSIIGKKGESVKKMREESGARINISEGNCPERIITLAGPTNAIFKAFAMIIDKLEEDISSSMTNSTAASRPPVTLRLVVPASQCGSLIGKGGCKIKEIRESTGAQVQVAGDMLPNSTERAITIAGIPQSIIECVKQICVVMLETLSQSPPKGVTIPYRPKPSSSPVIFAGGQDRYSTGSDSASFPHTTPSMCLNPDLEGPPLEAYTIQGQYAIPQPDLTKLHQLAMQQSHFPMTHGNTGFSGIESSSPEVKGYWGLDASAQTTSHELTIPNDLIGCIIGRQGAKINEIRQMSGAQIKIANPVEGSTDRQVTITGSAASISLAQYLINVRLSSETGGMGSS", "B2": "poly(rC)-binding protein 3, human; sequence looked up; chain MGEGDAFWAPSVLPHSTLSTLSHHPQPQFGRRMESKVSEGGLNVTLTIRLLMHGKEVGSIIGKKGETVKKMREESGARINISEGNCPERIVTITGPTDAIFKAFAMIAYKFEEDIINSMSNSPATSKPPVTLRLVVPASQCGSLIGKGGSKIKEIRESTGAQVQVAGDMLPNSTERAVTISGTPDAIIQCVKQICVVMLESPPKGATIPYRPKPASTPVIFAGGQAYTIQGQYAIPHPDQLTKLHQLAMQQTPFPPLGQTNPAFPGEKLPLHSSEEAQNLMGQSSGLDASPPASTHELTIPNDLIGCIIGRQGTKINEIRQMSGAQIKIANATEGSSERQITITGTPANISLAQYLINARLTSEVTGMGTL", "B3": "citrin, human; sequence looked up; chain AAAKVALTKRADPAELRTIFLKYASIEKNGEFFMSPNDFVTRYLNIFGESQPNPKTVELLSGVVDQTKDGLISFQEFVAFESVLCAPDALFMVAFQLFDKAGKGEVTFEDVKQVFGQTTIHQHIPFNWDSEFVQLHFGKERKRHLTYAEFTQFLLEIQLEHAKQAFVQRDNARTGRVTAIDFRDIMVTIRPHVLTPFVEECLVAAAGGTTSHQVSFSYFNGFNSLLNNMELIRKIYSTLAGTRKDVEVTKEEFVLAAQKFGQVTPMEVDILFQLADLYEPRGRMTLADIERIAPLEEGTLPFNLAEAQRQKASGDSARPVLLQVAESAYRFGLGSVAGAVGATAVYPIDLVKTRMQNQRSTGSFVGELMYKNSFDCFKKVLRYEGFFGLYRGLLPQLLGVAPEKAIKLTVNDFVRDKFMHKDGSVPLAAEILAGGCAGGSQVIFTNPLEIVKIRLQVAGEITTGPRVSALSVVRDLGFFGIYKGAKACFLRDIPFSAIYFPCYAHVKASFANEDGQVSPGSLLLAGAIAGMPAASLVTPADVIKTRLQVAARAGQTTYSGVIDCFRKILREEGPKALWKGAGARVFRSSPQFGVTLLTYELLQRWFYIDFGGVKPMGSEPVPKSRINLPAPNPDHVGGYKLAVATFAGIENKFGLYLPLFKPSVSTSKAIGGGP", "B4": "STAT1 (human); sequence looked up; chain SQWYELQQLDSKFLEQVHQLYDDSFPMEIRQYLAQWLEKQDWEHAANDVSFATIRFHDLLSQLDDQYSRFSLENNFLLQHNIRKSKRNLQDNFQEDPIQMSMIIYSCLKEERKILENAQRFNQAQSGNIQSTVMLDKQKELDSKVRNVKDKVMCIEHEIKSLEDLQDEYDFKCKTLQNREHETNGVAKSDQKQEQLLLKKMYLMLDNKRKEVVHKIIELLNVTELTQNALINDELVEWKRRQQSACIGGPPNACLDQLQNWFTIVAESLQQVRQQLKKLEELEQKYTYEHDPITKNKQVLWDRTFSLFQQLIQSSFVVERQPCMPTHPQRPLVLKTGVQFTVKLRLLVKLQELNYNLKVKVLFDKDVNERNTVKGFRKFNILGTHTKVMNMEESTNGSLAAEFRHLQLKEQKNAGTRTNEGPLIVTEELHSLSFETQLCQPGLVIDLETTSLPVVVISNVSQLPSGWASILWYNMLVAEPRNLSFFLTPPCARWAQLSEVLSWQFSSVTKRGLNVDQLNMLGEKLLGPNASPDGLIPWTRFCKENINDKNFPFWLWIESILELIKKHLLPLWNDGCIMGFISKERERALLKDQQPGTFLLRFSESSREGAITFTWVERSQNGGEPDFHAVEPYTKKELSAVTFPDIIRNYKVMAAENIPENPLKYLYPNIDKDHAFGKYYSRPKEAPEPMELDGPKGTGYIKTELISVSEVHPSRLQTTDNLLPMSPEEFDEVSRIVGSVEFDSMMNTV", "note": "Lines come from different studies, so protocols differ. ± marks the error that the study gave.", "chain of UniProt P26368 (whole entry, looked up)": "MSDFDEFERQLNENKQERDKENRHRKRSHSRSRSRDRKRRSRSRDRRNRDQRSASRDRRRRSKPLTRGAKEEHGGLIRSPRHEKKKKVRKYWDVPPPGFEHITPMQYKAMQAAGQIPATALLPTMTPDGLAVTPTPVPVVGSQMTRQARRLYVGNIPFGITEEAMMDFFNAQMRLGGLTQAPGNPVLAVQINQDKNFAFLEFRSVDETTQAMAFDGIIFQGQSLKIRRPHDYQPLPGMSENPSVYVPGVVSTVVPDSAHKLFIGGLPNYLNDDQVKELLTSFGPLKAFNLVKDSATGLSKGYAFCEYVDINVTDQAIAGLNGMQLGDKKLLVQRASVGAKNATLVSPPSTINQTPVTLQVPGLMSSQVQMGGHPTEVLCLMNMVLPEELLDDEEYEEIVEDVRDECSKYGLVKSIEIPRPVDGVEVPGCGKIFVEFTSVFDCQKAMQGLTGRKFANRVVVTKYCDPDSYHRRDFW", "chain of UniProt P21980 (whole entry, looked up)": "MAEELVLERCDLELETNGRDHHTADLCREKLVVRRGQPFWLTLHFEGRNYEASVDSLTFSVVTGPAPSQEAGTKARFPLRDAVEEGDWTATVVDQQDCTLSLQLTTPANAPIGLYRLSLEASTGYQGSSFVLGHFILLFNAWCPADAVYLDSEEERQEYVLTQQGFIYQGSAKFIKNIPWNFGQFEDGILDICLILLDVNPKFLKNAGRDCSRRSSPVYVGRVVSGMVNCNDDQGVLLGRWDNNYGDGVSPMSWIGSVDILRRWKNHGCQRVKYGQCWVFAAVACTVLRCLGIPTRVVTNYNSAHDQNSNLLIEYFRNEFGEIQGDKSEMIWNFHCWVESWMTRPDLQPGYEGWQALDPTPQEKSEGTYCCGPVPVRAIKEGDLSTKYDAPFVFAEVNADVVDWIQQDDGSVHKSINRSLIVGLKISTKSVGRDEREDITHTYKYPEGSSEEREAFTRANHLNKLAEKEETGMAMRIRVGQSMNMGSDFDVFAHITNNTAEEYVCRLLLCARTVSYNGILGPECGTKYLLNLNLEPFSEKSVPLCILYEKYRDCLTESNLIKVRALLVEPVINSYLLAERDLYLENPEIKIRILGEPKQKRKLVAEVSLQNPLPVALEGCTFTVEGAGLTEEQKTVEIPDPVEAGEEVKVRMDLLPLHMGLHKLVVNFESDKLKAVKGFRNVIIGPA"}
{"Substance": "B1", "target or system": "CYB5R4 knockout human cells", "assay": "PP4 interaction, 3xFLAG-PP4C IP-MS", "setting": "concentration not given", "scale": "reference: CYB5R4 KO over parental", "measurement": "log2 fold change", "value": 0.74}
{"Substance": "EIDPIGHNF", "target or system": "Jurkat expressing engineered TCR", "assay": "NFAT-eGFP reporter, fluorescence microscopy", "system": "peptide", "setting": "concentration not given, HLA-A*01:01 on EL4 cells", "measurement": "GFP-positive cells", "value": "0.473%"}
{"Substance": "lawsone", "target or system": "HuCC-A1", "assay": "MTT", "scale": "reference: MRC5 IC50 over HuCC-A1 IC50", "measurement": "selectivity index", "value": 3.12}
{"Substance": "B2", "target or system": "CYB5R4 knockout human cells", "assay": "PP4 interaction, 3xFLAG-PP4C IP-MS", "setting": "concentration not given", "scale": "reference: CYB5R4 KO over parental", "measurement": "log2 fold change", "value": 0.79}
{"Substance": "GUCUUGUUU (ssRNA)", "target or system": "U2AF2", "assay": "sequencing of bound RNA", "system": "RNA", "setting": "motif only", "measurement": "Kd", "value": "4.31 µM"}
{"Substance": "FNA / CGLSGLGVA-NH2 ([18F]FNA-labelled, C-amide)", "assay": "gamma counting", "system": "peptide, glioblastoma mice, Harderian glands", "setting": "60 min, added: CooP blocking, 500-fold excess", "measurement": "tissue uptake", "value": "0.3 %ID/g"}
{"Substance": "PSMC1 (human)", "target or system": "CYB5R4 knockout human cells", "assay": "PP6 interaction, 3xFLAG-PP6C IP-MS", "setting": "concentration not given", "scale": "reference: CYB5R4 KO over parental", "measurement": "log2 fold change", "value": 2.06}
{"Substance": "IGF-1", "target or system": "HUVEC", "assay": "EdU incorporation", "setting": "10 nM, 48 h", "measurement": "proliferation", "value": "18.9%"}
{"Substance": "epoetin alfa", "target or system": "UT7/EPO", "assay": "microarray, measured: FOS (probe 209189_at)", "setting": "5 U/mL, 90 min, added: SCF 10 nM", "scale": "reference: vehicle", "measurement": "mRNA level", "value": "4.6 fold"}
{"Substance": "human ME2 E90D", "assay": "enzyme activity, activator, NADH absorbance", "system": "recombinant enzyme", "setting": "range over 0 to 5 mM, pH 7.4", "scale": "reference: wild type", "measurement": "activation fold", "value": 0.6}
{"Substance": "EIDPIGYNY", "target or system": "Jurkat expressing engineered TCR", "assay": "NFAT-eGFP reporter, fluorescence microscopy", "system": "peptide", "setting": "concentration not given, HLA-A*01:01 on EL4 cells", "measurement": "GFP-positive cells", "value": "1.4%"}
{"Substance": "MTVCNASQRQAHAQATAVSL", "target or system": "H1648", "assay": "phage binding", "system": "peptide", "scale": "reference: targeting over control phage", "measurement": "selectivity ratio", "value": "4.1 ± 2"}
{"Substance": "QADPITTEY", "target or system": "Jurkat expressing engineered TCR", "assay": "NFAT-eGFP reporter, fluorescence microscopy", "system": "peptide", "setting": "concentration not given, HLA-A*01:01 on EL4 cells", "measurement": "GFP-positive cells", "value": "0.542%"}
{"Substance": "B3 (citrin, human)", "target or system": "CYB5R4 knockout human cells", "assay": "PP4 interaction, 3xFLAG-PP4C IP-MS", "setting": "concentration not given", "scale": "reference: CYB5R4 KO over parental", "measurement": "log2 fold change", "value": -1.08}
{"Substance": "colistin", "target or system": "Escherichia coli", "assay": "broth microdilution", "system": "clinical isolate RKI-No_443/16", "measurement": "MIC", "value": "4 mg/L"}
{"Substance": "Peginesatide", "target or system": "UT7/EPO", "assay": "tyrosine phosphorylation, LC-MS/MS phosphoproteomics, GluC, measured: GAB1 tyrosine 285", "setting": "10 nM, 15 min, added: 10 U/mL EPO", "scale": "reference: vehicle", "measurement": "phosphorylation level", "value": "6.5 fold"}
{"Substance": "GRKKRRQRRRPQ", "target or system": "HEK expressing SEP-GluA1", "assay": "SEP-GluA1 internalization, flow cytometry", "system": "peptide", "scale": "reference: untreated", "measurement": "lowest effective concentration", "value": "≥ 1 µM"}
{"Substance": "recombinant human interleukin-1 beta", "target or system": "enteroid monolayers", "assay": "RT-qPCR, measured: ABCC1", "setting": "10 ng/mL, 48 h", "measurement": "decrease in mRNA level", "value": "45 to 50%"}
{"Substance": "MTDPIGQDF", "target or system": "Jurkat expressing engineered TCR", "assay": "NFAT-eGFP reporter, fluorescence microscopy", "system": "peptide", "setting": "concentration not given, HLA-A*01:01 on EL4 cells", "measurement": "GFP-positive cells", "value": "0.669%"}
{"Substance": "human RGPD5", "target or system": "CYB5R4 knockout human cells", "assay": "PP4 interaction, 3xFLAG-PP4C IP-MS", "setting": "concentration not given", "scale": "reference: CYB5R4 KO over parental", "measurement": "log2 fold change", "value": -0.94}
{"Substance": "GGGAGCAGGAGAGAGGUCAGAUGUUUAGUAUAUACGAGAGAUGUGAACAAUGACCUAUGCGUGCUAGUGUGA (ssRNA; 2'-fluoro pyrimidines)", "target or system": "TGM2 2-687 (Homo sapiens, UniProt P21980)", "assay": "SPR", "system": "RNA", "setting": "added: MgCl2 5 mM", "scale": "higher = more binding", "measurement": "relative binding", "value": "-4.5 RU"}
{"Substance": "YLDPLQPEY", "target or system": "Jurkat expressing engineered TCR", "assay": "NFAT-eGFP reporter, fluorescence microscopy", "system": "peptide", "setting": "concentration not given, HLA-A*01:01 on EL4 cells", "measurement": "GFP-positive cells", "value": "0.748%"}
{"Substance": "B4 (STAT1)", "target or system": "CYB5R4 knockout human cells", "assay": "PP4 interaction, 3xFLAG-PP4C IP-MS", "setting": "concentration not given", "scale": "reference: CYB5R4 KO over parental", "measurement": "log2 fold change", "value": 1.08}
{"Substance": "EVDPLGLEY", "target or system": "Jurkat expressing engineered TCR", "assay": "NFAT-eGFP reporter, fluorescence microscopy", "system": "peptide", "setting": "concentration not given, HLA-A*01:01 on EL4 cells", "measurement": "GFP-positive cells", "value": "12.9%"}
{"Substance": "AAUAUUAAA (ssRNA)", "target or system": "U2AF2", "assay": "sequencing of bound RNA", "system": "RNA", "setting": "motif only", "measurement": "Kd", "value": "16.4 µM"}
{"note": "Some of these lines once more:"}
{"Substance": "EIDPIGHNF", "target or system": "Jurkat expressing engineered TCR", "assay": "NFAT-eGFP reporter, fluorescence microscopy", "system": "peptide", "setting": "concentration not given, HLA-A*01:01 on EL4 cells", "measurement": "GFP-positive cells", "value": "0.473%"}
{"Substance": "Peginesatide", "target or system": "UT7/EPO", "assay": "tyrosine phosphorylation, LC-MS/MS phosphoproteomics, GluC, measured: GAB1 tyrosine 285", "setting": "10 nM, 15 min, added: 10 U/mL EPO", "scale": "reference: vehicle", "measurement": "phosphorylation level", "value": "6.5 fold"}
